Results of several laboratories.
A part holds a random share of what one study measured.

Series 1 — technique: protein-binding microarray; form: double-stranded DNA, one strand shown; matrix: in vitro; tested at: 250 nM; setting: 60-bp whole probe; with: salmon DNA 0.4 mg/ml; baseline: random background probes; reading: higher = stronger binding; constant ends, left off below: GCCTAGCAC … GTCTTGATTCGCTTGACGCTGCTG
Target: Interferon regulatory factor 5, full length, phosphomimetic (IRF5, Homo sapiens, UniProt Q13568-2, residues 1-514, K96S/S451D/S453D/S456D/S462D)
Sequence	log fluorescence
TTAGGACTGCTTGTCCTTTAGTGCTAG	-0.382 z-score
GACGATATCGGGTTGCGAGACGTGCTA	1.76 z-score
TTAGATTTCACTATCGATTAGTGCTAG	9.46 z-score
TCTCTTTCCTTCTTGATGCAGTGCTAG	1.53 z-score
TTAGGTAACGGGTTTCGGTTAGTGCTA	7.86 z-score
GACGGACTGCTTATCCTGCCGTGCTAG	-0.407 z-score
ATGTTTTGAGTTTTCCTTCAGTGCTAG	1.06 z-score
GACGGTTGCGGGTATCGGGACGTGCTA	0.606 z-score
TTAGATCTCAGACTGGAATAGTGCTAG	-0.0262 z-score
TTTACTCTCTACATGGGTATGTGCTAG	0.491 z-score
CACGTTGCTCAAGGGCTTGAGTGCTAG	-0.333 z-score
GACGGTATCGGTTTTGGGACGTGCTAG	5.46 z-score
TCAGGTTTTCTAATGTTACTGTGCTAG	0.491 z-score
TTAGATTTCGGGTTTCGTTTAGTGCTA	7.35 z-score
TTAGGACTGGTCACTGGGTTAGTGCTA	-0.454 z-score
TCACCTTTATATACCTGACTGTGCTAG	0.568 z-score
ATAGATTCCAGTTTCGATTAGTGCTAG	10.1 z-score

Series 2 — technique: universal PBM; form: double-stranded DNA, one strand shown; matrix: in vitro; tested at: not given; reading: higher = stronger binding
Target: Sal-like protein 4, full length isoform B (SALL4, Homo sapiens, UniProt Q9UJQ4-2, residues 1-616)
Setting: 8-mer, flanks averaged, mean of replicates
Sequence	E-score
ACAACTCG	-0.00386
ACCGCGAC	-0.188
ACACAATC	0.0685
ATCCAAGG	-0.139
ATGTACTA	0.188
TATGAGGA	0.237
AACCTGGC	-0.151
CATGTCCG	-0.305
GGTATAAC	0.193
CCTGCTAC	-0.0329
GCCATGGA	-0.162
ACCTACAC	0.00739
CGTTATCA	0.222
TGATTCCA	-0.0237
CACATTAA	0.187
AAGCCATC	-0.0189
GACAATCA	0.0565
AACTGGCG	-0.254
CACTTTGA	-0.0905
AAGTAACG	0.0672
GCCTCAAC	0.0264

Series 3 — technique: protein-binding microarray; form: double-stranded DNA, one strand shown; matrix: in vitro; tested at: 0.8 µM; setting: whole 60-bp probe, no competitor; reading: higher = stronger binding; constant ends, left off below: … GTCTTGATTCGCTTGACGCTGCTG
Target: Centromere-binding protein 1, full length, N-terminal tag (CBF1, Saccharomyces cerevisiae, UniProt P17106, residues 1-351)
Sequence of UniProt P17106 (whole entry, looked up): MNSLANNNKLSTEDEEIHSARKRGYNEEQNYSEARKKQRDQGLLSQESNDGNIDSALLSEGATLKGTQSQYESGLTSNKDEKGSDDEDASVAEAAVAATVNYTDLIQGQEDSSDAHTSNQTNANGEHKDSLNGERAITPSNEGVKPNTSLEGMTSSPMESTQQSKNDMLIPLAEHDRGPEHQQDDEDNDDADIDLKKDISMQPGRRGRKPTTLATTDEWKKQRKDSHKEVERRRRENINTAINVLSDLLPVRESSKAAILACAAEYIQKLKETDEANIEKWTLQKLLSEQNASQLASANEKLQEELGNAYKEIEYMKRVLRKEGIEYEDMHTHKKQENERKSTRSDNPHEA
Sequence	fluorescence intensity
GAACCCCTTTATGGTCCCACCACGCGTACTGTATAG	575 a.u.
CTACACTACCGTAACAACGTGGTAGTTGGCAGATTC	575 a.u.
CTACGGCAAATAAATCATCTCCTGAACCATTTTTTC	546 a.u.
CTAGTTGCCGCACACGTGTTGGTGCACGTTAAGTTC	6640 a.u.
CTAATGCATATTGAAAACATCACGGGAACGAGATTC	1830 a.u.
CTATCTTCTAGCGCTTTGATCACGTGCTCGGGCTTC	25000 a.u.
CCTAACTACTATAATCACACCCAATAGCTTCGTACA	575 a.u.
CCTAACTACTATAGTCATGCGAGATAGCTTCGTACA	545 a.u.
GAAAAGGCCACCGCTGGTGACACCCATTTGGGTTAG	483 a.u.
GAACAACACACTCTTCCCGTGATGCGAATGGTATAG	876 a.u.
GAACGGCTGCAGTATTCCATGTGATATCTACCGTAG	936 a.u.
CCTAACTACTATACGGTGGTGATATAGCTTCGTACA	515 a.u.
CTATTGTCCTTCAAGTTGGTGATGCGCCGGCGATTC	504 a.u.
GAAAACGGCCAATGTGACACCAGTTCACTCGGCTAG	613 a.u.
GAATCCGCCGCAATTTTCGTGACGAATGTCGTTTAG	508 a.u.
GAACTTCGCTCAAGTCACGAAAGCACATCTTACTAG	536 a.u.
GAAAGAATACTTGATGAACAGGTGAAACTTGAATAG	575 a.u.
TGTACGAAGCTATGGTGACTGAGTATAGTAGTTAGG	534 a.u.
CCTAACTACTATAACGTGAATATATAGCTTCGTACA	620 a.u.
CTATAGGCTAAACGGCACATGTTAACTTTTTTCTTC	871 a.u.
CTAAGTAGCATACGTGATGTGCAAAAAATGCGCTTC	851 a.u.
CTAGGCCATCTTCGCCATCAGAGAGACCGTACCTTC	520 a.u.
CTATTTTTCATTTATCCAGTCACAATTTTAAAATTC	696 a.u.
CTAAATAAAATCACACCGACCACGCTTACATGGTTC	557 a.u.
CTAAAGTCTACCCAGCACGCATCCTTCGTTTATTTC	523 a.u.

Series 4 — technique: aptamer microarray, sandwich; form: DNA with 2'F-ANA; matrix: in vitro; tested at: 200 nM; with: Cy3 exosite-II aptamer, 400 nM; reading: higher = stronger binding; sequence: GGTTGGTGTGGTTGG
Target: Prothrombin, mature alpha-thrombin (F2, Homo sapiens, UniProt P00734)
Setting: whole 15-mer aptamer, many near background
Modification	mean fluorescence intensity
2'F-ANA at 5 6 8 9 12 13	102 a.u.
2'F-ANA at 1 5 6 8 9 10 12 13 14 15	81 a.u.
2'F-ANA at 1 2 3 5 7 8 9 10 12 13 14	49.5 a.u.
2'F-ANA at 1 2 5 7 9 11 15	50.5 a.u.
2'F-ANA at 1 3 4 5 6 7 8 9 10 11 12 13 14 15	60 a.u.
2'F-ANA at 2 3 6 8 11 13 14	317 a.u.
2'F-ANA at 4 13 15	215 a.u.
2'F-ANA at 1 9 12 13 14	58.9 a.u.
2'F-ANA at 3 5 6 8 10 14 15	53.5 a.u.
2'F-ANA at 1 6	164 a.u.
2'F-ANA at 1 3 7 8 9 11 12 13 15	373 a.u.
2'F-ANA at 2 3 4 5 6 7 8 10 11 13 15	51.4 a.u.
2'F-ANA at 1 3 4 7 9 10 14	51.5 a.u.
2'F-ANA at 2 4 7 8 9 10 11 12	179 a.u.
2'F-ANA at 1 2 3 6 7 8 11 13 14	66.9 a.u.
2'F-ANA at 1 4 10 12 13 14 15	42.9 a.u.
2'F-ANA at 2 5 6 11 12	125 a.u.
2'F-ANA at 1 2 3 9 13 15	217 a.u.
2'F-ANA at 3 6 8 10 11 12 13	511 a.u.
2'F-ANA at 4 5 6 12 13 14	44.7 a.u.
2'F-ANA at 1 2 3 6 7 10 11 12 13 15	74.8 a.u.
2'F-ANA at 2 4 8 9 10 12 13 15	100 a.u.

Series 5 — technique: protein binding microarray; form: double-stranded DNA, one strand shown; matrix: in vitro; tested at: not given; baseline: not given; reading: higher = stronger binding
Target: Histone acetyltransferase KAT6A, winged helix 1, GST fusion (KAT6A, Homo sapiens, UniProt Q92794, residues 1-85)
Setting: 8-mer, flanks averaged, mean of 2 arrays, mostly near background
Target sequence (chain): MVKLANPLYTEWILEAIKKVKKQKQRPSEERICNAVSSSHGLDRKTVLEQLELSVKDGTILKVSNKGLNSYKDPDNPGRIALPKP
Sequence	E-score
GTGACGTA	-0.0268
ATTTCCCG	0.182
CATTGACA	-0.0447
AAACATGA	-0.0511
CCGGAAGC	0.166
ACAACGAA	-0.186
AGCCGTCA	0.299
ACCTACCG	0.0527
GTTATGGA	-0.185
AGCTGCGA	0.0519
GACCTGAC	-0.298
CCGTTATA	0.141
GTCCCCAA	-0.148
CGGAAATA	0.103
ATAAAAAA	-0.0279
GAACGGGC	0.237
CGTCCTGA	-0.161
CCCTTGTA	-0.246
CCTGTCAG	-0.123
GAGGCATA	-0.0238
TATGCGCA	0.333
AAAGCAGG	-0.177
GAAATAGC	0.0136
AATGTTCA	-0.151
ATGTGATC	-0.0254

Series 6 — technique: protein-binding microarray; form: double-stranded DNA, one strand shown; matrix: in vitro; tested at: not given; reading: higher = stronger binding
Target: Protein max, full length (MAX, Homo sapiens, UniProt P61244-2, residues 1-151)
Setting: k-mer, scored over probes, only values ≥0.25
Sequence	E-score
CCCCACGG	0.269
AACAGGTG	0.396
AGTAGCAT	0.258
AACACGGG	0.374
CATGCCGA	0.399
CGACGTGC	0.261
CGGAACAC	0.266
ACGCGCAG	0.312
GCACGGGA	0.335
AATCACGT	0.451
CGCATGAA	0.28
CCCACCCG	0.264
AAACCATG	0.345
TCGTGCCA	0.309
AACGTGCT	0.437
CCATATGA	0.321
CACGGGAC	0.316
CACATGCG	0.474
AACAGCAT	0.273
ACGAGGCA	0.298
CAGTCACA	0.321
CCACACGG	0.263
ACATGGTC	0.416
CATGGCCG	0.362
GTGGGAAC	0.251

Excerpt of the above (series 4):
Modification	mean fluorescence intensity
2'F-ANA at 4 13 15	215 a.u.
2'F-ANA at 1 9 12 13 14	58.9 a.u.
2'F-ANA at 3 5 6 8 10 14 15	53.5 a.u.
2'F-ANA at 1 6	164 a.u.
2'F-ANA at 1 3 7 8 9 11 12 13 15	373 a.u.
2'F-ANA at 2 3 4 5 6 7 8 10 11 13 15	51.4 a.u.
2'F-ANA at 1 3 4 7 9 10 14	51.5 a.u.
2'F-ANA at 2 4 7 8 9 10 11 12	179 a.u.
2'F-ANA at 1 2 3 6 7 8 11 13 14	66.9 a.u.
2'F-ANA at 1 4 10 12 13 14 15	42.9 a.u.
